Measured values from different studies.
Numbered parts are unrelated; each lists some results of a single study.

Sample 1
Target: RING finger protein unkempt homolog, zinc fingers 1-6, GST-SBP tag (UNK, Homo sapiens, UniProt Q9C0B0, residues 30-357)
Technique: RNA Bind-n-Seq
Molecule type: RNA
Matrix: in vitro
Concentration: not given
Notes: RNA with constant flanks, ends assumed
Baseline: input RNA pool
Reading: higher = stronger binding
Measurement: bound/input enrichment
All sequences stand within: GGGAGUUCUACAGUCCGACGAUC … CAACAGAGGAUUGAGCAUCA
Construct (chain): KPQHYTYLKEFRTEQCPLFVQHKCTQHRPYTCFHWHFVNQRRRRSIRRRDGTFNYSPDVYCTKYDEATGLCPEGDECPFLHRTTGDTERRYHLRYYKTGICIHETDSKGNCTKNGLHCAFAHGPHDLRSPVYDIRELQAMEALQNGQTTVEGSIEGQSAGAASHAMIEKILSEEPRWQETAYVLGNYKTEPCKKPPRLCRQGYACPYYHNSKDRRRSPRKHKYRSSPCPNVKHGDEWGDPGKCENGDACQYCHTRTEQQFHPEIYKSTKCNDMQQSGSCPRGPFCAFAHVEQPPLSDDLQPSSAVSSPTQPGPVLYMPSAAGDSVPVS
GGAAUUGCAAACUGAUUCAAGUUUGAAUAUCACAAUGUUAGCUUUCUAAUUCCACACAGACCGUUUUUACAGUUUCUAACCCCACAUCAAUCCAUCACCGUUUAUAAAGAUCAGCUUCCC: 0.544 ratio
AGAAAAAUACAUCUUUCUGAAUUAAUGCUGGAGAAAUGCCCUUUUCCUGCUGGCUCGGAUUCCGCACAAAAGUGGCAUUUGAUUAAACAGCAUACCGCCCCUGUGAGCCCACACUCAACA: 0.0731 ratio
AGUCUUCUAUUUUUAAUAGGAACUUAGAAAAAACUUAGAAUUAUAUAUAGAGUUGUUUCCUUCCGAAACCAGAGCUAUUUAUUUGUAUUUAAAGCACUGUUUAUUAUUUGUACUGAUUCU: 55.4 ratio
AAAGAAAAUGGAGAUGUAAAGAUUUUACUGAAAAGUGGGAAGGAGAAACCAAAAACAAAUACCGAAGACUUACAAAUUAAAAAAGUAAAGAAGAAAAAGAAAAAGAAACACAAAGAGAAU: 0.397 ratio
GUUUCAGCCGCAGCUGAAUUUGAGAAUGCUGAAUCUGAGGCUGAUUUCAGUAUACAUUUCAACCGAUUCAACCCCGAUGGGGAAGAGGAAGAUGUUACAGUACAAGAAUGACUUUCUCUU: 0.115 ratio
CCAGGCUGGAGUCAUUUACAAGUUUCUCCACGUAGAUUGUAGUCAGGUUUCUCCCAGACCUCCGGCGUUUGUAUUUUUUUUUUUAAUUUUAAUUUCACUGUUACCCUUGACUAUUGUCCU: 47.8 ratio
GAAAUGCUGACAAGAUGUGGCAUUGGUAAGUUGCUACUCUUUGAUUAUGACAAGGUGGAACCCGCCAAUAUGAAUAGACUUUUCUUCCAACCUCAUCAAGCAGGAUUAAGUAAAGUUCAA: 0.155 ratio
CCCCUUCAAGAGAUUCUCGUUUUUCAAAGAUGUGUAUAUCCUUUUAUCACUCACAAGUGGCCGCAUGUCAGAUGCUUCCCCCACCCCCACUGCUUUAUGUAAUAUGUCAUGGGCAUUUCG: 0.518 ratio
UACCACGAGGGGGGACGCGUCUGGGUUGGCAGACCUUUUGGAUGUAGCCUUGUGGGAACAUUCCGACCCUUUCCUCUGGAAGAGCCACCAUGAAUUCGGUAGCCGGAAAUAAAGAGAGGC: 0.14 ratio
UCUGACAUUUCUACUCUUGGACACCUGGUAAUAACCACUCAGGGAGGAUAUGUAAAAAUACCCGAUCUUUCAAACUUUGAAAUUUUGGCCAAAGUGGAGCCUCCCAAAAAGGAGGGCACU: 0.27 ratio
GCUGAAGUACCACACAUUAGAGAAAGUGUAAUGAGACAAGGGCGCCAUCUGUGUUUCCAGUCCGUAAGUCCAACAGGAACAGCUGUUUCAACUCUUAGUUACAUAAGCAGGACAAAUCAG: 0.341 ratio

Sample 2
Target: RNA binding protein fox-1 homolog 2, RRM domain, GST-SBP tag (RBFOX2, Homo sapiens, UniProt O43251-10, residues 100-194)
Technique: RNA Bind-n-Seq
Molecule type: RNA
Matrix: in vitro
Concentration: 365 nM
Notes: natural RNA segment, single round, ends assumed
Baseline: no-protein control
Reading: higher = stronger binding
Measurement: RBNS enrichment (R)
All sequences stand within: GGGAGUUCUACAGUCCGACGAUC … UGGAAUUCUCGGGUGCCAA
Target sequence (chain): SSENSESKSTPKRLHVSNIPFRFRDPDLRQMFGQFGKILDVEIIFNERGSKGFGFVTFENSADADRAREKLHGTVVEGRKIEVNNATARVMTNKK
UAUCCCAGCUUGCUGAGGGGCAGGGAGAGCGCCUCUUCCUCUGGGCAGCGCUAUCUAGAUAGGUAAGUGGGGGCGGGGAAGGGUGCAUAGCUGUUUUAGCUGAGGGACGU: 1.28
UACCAUUUUGAUUAGUCUGAAUGUUUUCAGGCCUUGAAAUAAAUUUUGACUAAGUGAUAUUUUUUCUUCCCUGUGUCAGCUUGAAUCUUACUUUAUGUAUUUCGAAUUUG: 0.452
UUUCUAGUAAGGGGCUGUAGUUAGAUGACUCUUGUAUAGAUUUCAGUUACUUAUGCUGAAGAUCCCUGUGCUAGGUUAGCCUUUAGAAGUUAGAGUUGUGGAAAGCAGUA: 0.876
GAAACGAAUCCUUGAGAGGAGCACUGUCCCGUCCCUUGCUCCUUAUGGCUGGUCCUCCUUCUUGCUCACUGACCCCUCUCCAGGACACUGUCCCUGAAGCCUUCGCAUCU: 0.744
CUGCUUUCUGAGCCCUGGGCCUGUGUCCUCCUAGAACUUCCAGGUUCCCGUUGCUUUGUUUUUCUGUCUGAAGGAAUCUUUUUCUUAGUCUUGUGAGCAGAUGUACCUGA: 9.55
UCUAAUAGGAAAGGAUUUCUUCUUUCUUUUUUAAAGAGUGGGUGGAUUUUCUCCCUUUUGUUUUGCUUUUAUUUUCAUGCUACUAACAUAUCUUCAGAAGGAAAUGGCAA: 1.17
GUAACUCCACACCCAGGAGGGUAAGCCACUUUAUUAUCAUGCUUUGGGGCUGUGCUUAAGAAUUUAAGCUCUGUUUUAAAGCCGAAGAAGAAAACAUUUGAAUUUACCUU: 0.213
GGACAGAGGCCCAAUGGGUGAAGGCUUUGAAGAGCACACAGAAGCCCCUGGCCCCCCACGAGAGCUGGAGAGCCAUGUAUAUGGCUUCAAAGCCACCUACGGCAGGGACA: 0.4
AGCUGCCACAGUAAGCAGGUCAUUGUAUAGGUAAAUGCCUGCACCCAUAAUUUUCUAGUAAUAGCCACGACCAAUUUAUUAACAGUCAGGGCCUAUCCUUGCCUGUAGUU: 0.508
AGAUCUGGAAGUAAGCAAAUGUGAAAAUUCCUUUUGGAACCUGACAGAUGCAGCUAAACUAAACAGUGCUUUUCAGACUAGUGUGUGUGUGUGUGUGUGUUCACACAUGU: 0.581
UGUGUCCUCUCUGACUUGGCCAGCCUGAUGGUCCUUCCUUCUACUCUGUGUAGUCAUUCCUAAGCCCCACAGAGGGAGCGCCAACAUUUCUCACUGUGCUGCUGAGGUUC: 0.197
GGAAGCAUAUUUAGCCAUCUAUGUGGCUUUAUGGCCCACAGACCUUGCCUUUUAGUCCUAUACAAAUGUACCUUUCUAUAAAGGGGUGCAAGCAGCACUUCAGAAGAAAC: 0.347

Sample 3
Target: Prothrombin, mature alpha-thrombin (F2, Homo sapiens, UniProt P00734)
Technique: aptamer microarray, sandwich
Molecule type: DNA with 2'F-ANA
Matrix: in vitro
Concentration: 200 nM
Notes: whole 15-mer aptamer, many near background
With: Cy3 exosite-II aptamer, 400 nM
Reading: higher = stronger binding
Measurement: mean fluorescence intensity
Oligonucleotide: GGTTGGTGTGGTTGG
2'F-ANA at 1 2 3 6 7 9: 192 a.u.
2'F-ANA at 1 4 6 7 9 10 12: 57.3 a.u.
2'F-ANA at 2 9 10 11 13 15: 93.9 a.u.
2'F-ANA at 3 4 5 8 9 10 12 13 14 15: 55.2 a.u.
2'F-ANA at 1 2 3 4 6 7 11: 133 a.u.
2'F-ANA at 2 3 4 5 8 12 13: 130 a.u.
2'F-ANA at 2 4 5 7 8 9 10 11 12 13 14 15: 49.2 a.u.
2'F-ANA at 2 3 4 5 7 11 12 13 14 15: 52.2 a.u.
2'F-ANA at 1 4 9 10 11 13 14 15: 48 a.u.
2'F-ANA at 4 5 6 11 13 14 15: 43.8 a.u.
2'F-ANA at 2 3 5 6 10 12 13 14: 53.3 a.u.
2'F-ANA at 4 6 9 10 11 13: 83.1 a.u.
2'F-ANA at 1 2 8 11 12 13 15: 312 a.u.
2'F-ANA at 1 2 3 4 5 6 9 10 12 15: 50.9 a.u.
2'F-ANA at 1 2 4 6 10 11 12 13 15: 90.8 a.u.
2'F-ANA at 3 4 5 6 7 8 9 10 11: 53.2 a.u.
2'F-ANA at 1 2 4 5 6 8 10 12: 50.8 a.u.
2'F-ANA at 1 2 4 6 7 8 10 11 12 13 15: 57.1 a.u.
2'F-ANA at 3 4 8 9 10 11 12 13: 264 a.u.

Sample 4
Target: Sal-like protein 4, full length isoform B (SALL4, Homo sapiens, UniProt Q9UJQ4-2, residues 1-616)
Technique: universal PBM
Molecule type: double-stranded DNA, one strand shown
Matrix: in vitro
Concentration: not given
Notes: 8-mer, flanks averaged, mean of replicates
Reading: higher = stronger binding
Measurement: E-score
Target sequence (chain): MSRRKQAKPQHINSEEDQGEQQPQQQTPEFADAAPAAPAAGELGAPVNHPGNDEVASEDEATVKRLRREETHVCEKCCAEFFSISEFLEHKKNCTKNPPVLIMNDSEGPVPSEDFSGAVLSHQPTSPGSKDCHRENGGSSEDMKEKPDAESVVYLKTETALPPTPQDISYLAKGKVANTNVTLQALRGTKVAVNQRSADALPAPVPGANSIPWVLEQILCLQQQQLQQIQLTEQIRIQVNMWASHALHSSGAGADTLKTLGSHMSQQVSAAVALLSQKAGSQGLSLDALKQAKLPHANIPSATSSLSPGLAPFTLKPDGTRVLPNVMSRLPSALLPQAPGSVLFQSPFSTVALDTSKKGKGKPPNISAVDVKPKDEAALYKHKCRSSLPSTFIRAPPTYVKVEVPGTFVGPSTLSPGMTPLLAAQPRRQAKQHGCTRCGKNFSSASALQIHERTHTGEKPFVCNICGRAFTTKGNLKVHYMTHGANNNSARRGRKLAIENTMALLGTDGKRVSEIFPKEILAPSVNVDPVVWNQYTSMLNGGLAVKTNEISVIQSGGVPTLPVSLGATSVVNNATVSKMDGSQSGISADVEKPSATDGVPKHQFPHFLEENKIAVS
ATCGAAGG: 0.0826
CCGCACCC: -0.3
ATGGTATC: 0.112
GAAATCTC: 0.0147
ATGACCTC: -0.124
CACGTTAG: -0.0055
CTCGGCCA: -0.142
GCGAACCA: -0.0458
GGTGCAAC: -0.204
GCCCGACC: -0.291
AGAGAACG: 0.0172
GTAGAATA: 0.272
TCTTCTAA: 0.147
AGATACTA: 0.0524
CCTATTCA: 0.0196
GGTCTATA: 0.205
AGCCCGAC: -0.323
ATATACTG: 0.231
CCCTGGTA: -0.329
GGGGAACA: -0.173
AATAGGGA: 0.0517
CGCTCTAG: -0.359
GTTCGAGA: -0.0946
CAAGAACC: -0.0459
CAATTACG: 0.196

Some of these lines once more (sample 4):
GAAATCTC: 0.0147
ATGACCTC: -0.124
CACGTTAG: -0.0055
CTCGGCCA: -0.142
GCGAACCA: -0.0458
GGTGCAAC: -0.204
GCCCGACC: -0.291
AGAGAACG: 0.0172
GTAGAATA: 0.272
